# Experimental data gathered from unrelated publications.
# Compare with care: the assays were run in different laboratories. “And” joins repeats or separate records; there may be more than shown. ± gives the spread as reported.
# 7-alpha-hydroxycholest-4-en-3-one 12-alpha-hydroxylase: 7-alpha-hydroxycholest-4-en-3-one 12-alpha-hydroxylase (Homo sapiens, UniProt Q9UNU6)
# Chain of UniProt Q9UNU6 (whole entry, looked up): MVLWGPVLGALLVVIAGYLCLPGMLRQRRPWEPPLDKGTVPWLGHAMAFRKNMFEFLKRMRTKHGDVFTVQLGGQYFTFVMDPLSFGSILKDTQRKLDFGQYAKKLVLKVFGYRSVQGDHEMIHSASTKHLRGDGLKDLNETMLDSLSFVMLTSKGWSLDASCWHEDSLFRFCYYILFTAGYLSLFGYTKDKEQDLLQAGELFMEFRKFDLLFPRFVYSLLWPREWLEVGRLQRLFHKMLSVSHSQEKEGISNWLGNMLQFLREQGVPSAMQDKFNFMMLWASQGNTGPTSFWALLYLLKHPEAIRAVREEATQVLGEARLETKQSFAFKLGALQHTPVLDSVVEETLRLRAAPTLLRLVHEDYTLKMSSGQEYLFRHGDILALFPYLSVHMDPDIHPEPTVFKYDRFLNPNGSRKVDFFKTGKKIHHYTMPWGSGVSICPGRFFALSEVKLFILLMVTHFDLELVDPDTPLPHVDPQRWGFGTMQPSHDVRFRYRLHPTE
# ALDH2: Aldehyde dehydrogenase, mitochondrial (ALDH2, Homo sapiens, UniProt P05091)
# Chain of UniProt P05091 (whole entry, looked up): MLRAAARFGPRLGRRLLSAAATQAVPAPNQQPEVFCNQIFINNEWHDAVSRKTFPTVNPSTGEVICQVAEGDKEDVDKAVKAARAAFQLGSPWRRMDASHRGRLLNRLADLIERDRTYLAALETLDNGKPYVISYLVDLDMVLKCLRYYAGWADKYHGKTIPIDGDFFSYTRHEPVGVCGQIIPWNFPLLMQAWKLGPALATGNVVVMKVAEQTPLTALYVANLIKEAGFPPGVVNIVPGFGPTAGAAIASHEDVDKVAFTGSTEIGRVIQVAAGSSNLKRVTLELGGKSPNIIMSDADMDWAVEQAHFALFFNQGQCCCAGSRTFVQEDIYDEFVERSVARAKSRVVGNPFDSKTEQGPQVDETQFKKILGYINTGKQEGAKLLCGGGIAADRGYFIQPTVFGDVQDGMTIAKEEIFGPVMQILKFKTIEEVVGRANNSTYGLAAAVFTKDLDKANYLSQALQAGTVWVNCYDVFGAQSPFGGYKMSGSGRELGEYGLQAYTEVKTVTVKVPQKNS
# Histone acetyltransferase RTT109 with Vps75: Histone acetyltransferase RTT109, with Vps75 (Saccharomyces cerevisiae, UniProt Q07794)
# Chain of UniProt Q07794 (whole entry, looked up): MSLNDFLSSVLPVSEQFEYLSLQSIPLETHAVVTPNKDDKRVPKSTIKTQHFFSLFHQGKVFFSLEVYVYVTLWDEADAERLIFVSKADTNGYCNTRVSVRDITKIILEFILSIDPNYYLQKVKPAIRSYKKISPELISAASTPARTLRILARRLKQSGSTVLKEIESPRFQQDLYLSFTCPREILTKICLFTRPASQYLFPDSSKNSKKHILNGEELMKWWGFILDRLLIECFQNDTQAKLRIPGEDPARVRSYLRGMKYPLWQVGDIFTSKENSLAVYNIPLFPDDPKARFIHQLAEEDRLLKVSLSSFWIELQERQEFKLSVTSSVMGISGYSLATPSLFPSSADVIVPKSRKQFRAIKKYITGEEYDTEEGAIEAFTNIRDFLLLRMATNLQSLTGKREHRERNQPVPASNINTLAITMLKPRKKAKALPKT
# Chain of UniProt P61823 (whole entry, looked up): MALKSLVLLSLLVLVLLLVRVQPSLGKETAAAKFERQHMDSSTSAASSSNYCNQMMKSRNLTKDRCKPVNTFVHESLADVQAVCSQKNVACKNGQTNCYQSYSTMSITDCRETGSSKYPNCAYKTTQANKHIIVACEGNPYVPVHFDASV
# Chain of UniProt P35226 (whole entry, looked up): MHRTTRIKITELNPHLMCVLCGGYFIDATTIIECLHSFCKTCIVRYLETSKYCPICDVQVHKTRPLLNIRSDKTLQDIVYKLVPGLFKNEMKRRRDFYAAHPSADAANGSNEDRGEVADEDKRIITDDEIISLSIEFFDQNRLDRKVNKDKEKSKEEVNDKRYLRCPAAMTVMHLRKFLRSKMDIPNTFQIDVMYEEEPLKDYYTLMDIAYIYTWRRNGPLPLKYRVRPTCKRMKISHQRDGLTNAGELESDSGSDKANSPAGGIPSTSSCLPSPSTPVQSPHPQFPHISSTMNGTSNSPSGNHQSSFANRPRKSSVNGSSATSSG
# Chain of UniProt P06709 (whole entry, looked up): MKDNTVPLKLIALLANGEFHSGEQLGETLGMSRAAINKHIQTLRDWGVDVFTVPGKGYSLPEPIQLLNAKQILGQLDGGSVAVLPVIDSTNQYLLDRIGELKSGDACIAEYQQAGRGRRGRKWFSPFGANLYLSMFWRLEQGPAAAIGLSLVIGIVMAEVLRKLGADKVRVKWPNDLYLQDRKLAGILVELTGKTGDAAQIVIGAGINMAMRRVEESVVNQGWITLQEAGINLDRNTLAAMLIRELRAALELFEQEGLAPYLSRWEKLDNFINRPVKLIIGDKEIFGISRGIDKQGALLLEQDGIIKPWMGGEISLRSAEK
# Chain of UniProt Q9BXW6 (whole entry, looked up): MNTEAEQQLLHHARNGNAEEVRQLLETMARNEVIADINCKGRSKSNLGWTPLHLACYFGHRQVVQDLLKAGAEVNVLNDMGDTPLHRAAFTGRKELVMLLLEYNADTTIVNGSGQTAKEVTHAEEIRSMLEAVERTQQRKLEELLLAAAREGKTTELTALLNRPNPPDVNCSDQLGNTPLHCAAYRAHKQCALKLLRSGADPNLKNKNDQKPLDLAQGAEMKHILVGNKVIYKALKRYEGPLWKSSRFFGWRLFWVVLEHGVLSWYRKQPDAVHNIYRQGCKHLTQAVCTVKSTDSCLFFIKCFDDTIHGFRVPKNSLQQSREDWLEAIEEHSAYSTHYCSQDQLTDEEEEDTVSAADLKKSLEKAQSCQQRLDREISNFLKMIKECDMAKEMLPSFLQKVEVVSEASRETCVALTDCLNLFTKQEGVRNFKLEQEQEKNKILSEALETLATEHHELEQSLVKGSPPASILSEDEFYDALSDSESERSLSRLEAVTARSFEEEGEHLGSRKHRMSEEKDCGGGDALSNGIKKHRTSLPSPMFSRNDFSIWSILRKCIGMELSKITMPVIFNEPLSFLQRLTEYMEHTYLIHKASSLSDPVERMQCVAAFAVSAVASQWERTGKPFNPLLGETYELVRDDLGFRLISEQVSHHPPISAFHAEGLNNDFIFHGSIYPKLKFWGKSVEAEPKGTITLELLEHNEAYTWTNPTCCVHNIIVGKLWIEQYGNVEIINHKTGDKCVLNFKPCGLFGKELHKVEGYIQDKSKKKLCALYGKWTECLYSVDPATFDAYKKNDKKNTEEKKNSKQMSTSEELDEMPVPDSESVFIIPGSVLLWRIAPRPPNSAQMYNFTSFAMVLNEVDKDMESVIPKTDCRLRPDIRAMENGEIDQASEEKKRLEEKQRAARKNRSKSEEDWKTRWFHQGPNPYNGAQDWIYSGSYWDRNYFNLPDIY
# Chain of UniProt Q06124 (whole entry, looked up): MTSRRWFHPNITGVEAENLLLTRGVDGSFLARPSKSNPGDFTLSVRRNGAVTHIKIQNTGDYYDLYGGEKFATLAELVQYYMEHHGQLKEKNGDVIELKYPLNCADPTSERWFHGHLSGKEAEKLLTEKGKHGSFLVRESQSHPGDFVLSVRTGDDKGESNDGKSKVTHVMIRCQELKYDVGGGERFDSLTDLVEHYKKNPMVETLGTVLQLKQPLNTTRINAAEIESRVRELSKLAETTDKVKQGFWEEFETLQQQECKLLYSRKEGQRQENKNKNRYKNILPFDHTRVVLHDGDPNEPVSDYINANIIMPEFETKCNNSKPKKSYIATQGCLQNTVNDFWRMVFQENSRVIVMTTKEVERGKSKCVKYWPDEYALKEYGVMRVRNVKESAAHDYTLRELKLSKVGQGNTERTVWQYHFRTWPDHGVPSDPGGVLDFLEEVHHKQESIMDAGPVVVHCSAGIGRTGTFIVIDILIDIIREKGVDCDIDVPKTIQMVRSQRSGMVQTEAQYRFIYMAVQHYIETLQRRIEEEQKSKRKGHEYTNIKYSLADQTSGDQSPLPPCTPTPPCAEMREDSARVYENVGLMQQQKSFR
# Chain of UniProt A0A0H2URD6 (whole entry, looked up): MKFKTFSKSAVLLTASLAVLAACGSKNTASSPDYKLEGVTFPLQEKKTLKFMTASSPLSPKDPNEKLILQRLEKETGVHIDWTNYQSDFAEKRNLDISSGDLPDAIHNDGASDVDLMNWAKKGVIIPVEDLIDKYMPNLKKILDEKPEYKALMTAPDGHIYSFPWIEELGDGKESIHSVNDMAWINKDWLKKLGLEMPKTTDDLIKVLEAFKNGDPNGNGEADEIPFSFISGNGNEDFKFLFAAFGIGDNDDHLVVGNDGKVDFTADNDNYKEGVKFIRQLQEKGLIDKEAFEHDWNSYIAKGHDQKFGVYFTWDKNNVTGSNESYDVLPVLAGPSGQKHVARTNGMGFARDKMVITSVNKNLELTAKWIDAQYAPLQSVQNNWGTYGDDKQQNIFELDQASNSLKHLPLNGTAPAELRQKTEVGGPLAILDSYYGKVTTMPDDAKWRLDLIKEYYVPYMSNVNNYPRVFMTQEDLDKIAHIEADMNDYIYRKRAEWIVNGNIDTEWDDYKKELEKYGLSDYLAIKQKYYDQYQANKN
# Chain of UniProt P49841 (whole entry, looked up): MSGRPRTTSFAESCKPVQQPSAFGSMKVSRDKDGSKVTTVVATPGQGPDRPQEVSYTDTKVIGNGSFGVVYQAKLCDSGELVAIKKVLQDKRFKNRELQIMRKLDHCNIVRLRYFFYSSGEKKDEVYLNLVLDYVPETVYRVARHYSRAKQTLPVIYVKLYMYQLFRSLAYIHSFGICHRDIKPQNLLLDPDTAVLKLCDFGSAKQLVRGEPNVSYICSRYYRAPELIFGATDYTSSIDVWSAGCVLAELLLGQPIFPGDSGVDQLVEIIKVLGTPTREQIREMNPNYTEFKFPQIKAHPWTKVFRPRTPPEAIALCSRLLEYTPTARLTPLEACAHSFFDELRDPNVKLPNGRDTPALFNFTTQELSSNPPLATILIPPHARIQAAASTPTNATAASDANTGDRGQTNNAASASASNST
# Chain of UniProt Q16774 (whole entry, unmodified, looked up): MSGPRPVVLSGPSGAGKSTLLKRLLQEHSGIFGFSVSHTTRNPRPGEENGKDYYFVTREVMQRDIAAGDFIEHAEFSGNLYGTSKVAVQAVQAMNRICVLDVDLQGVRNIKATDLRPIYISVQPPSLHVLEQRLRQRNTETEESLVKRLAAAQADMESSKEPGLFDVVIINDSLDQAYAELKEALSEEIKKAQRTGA
SMILES,target,test,system,setting,quantity,result
CCCN1CCN(c2ccc(-c3cncc(Cl)c3N3CCC4(CCNC4=O)CC3)cc2)CC1,"GSK3B (Homo sapiens, UniProt P49841)",SILAC displacement,LS174T-L5 cell lysate,,Kd,1.59 µM
O=C(Cn1ccnc1)c1ccc(Cl)cc1Cl,7-alpha-hydroxycholest-4-en-3-one 12-alpha-hydroxylase,binding,,"20 min, pH 7.4",Kd,280 µM
NCCS(=O)(=O)O,"uncharacterized protein (Pelagibacter ubique, UniProt Q4FMG4)",isothermal titration calorimetry,Candidatus Pelagibacter ubique,,Kd,0.0632 µM and 0.0495 µM and 0.0742 µM
Cc1[nH]c2ccccc2c1CCNCc1ccc(/C=C/C(=O)NO)cc1,ALDH2,"inhibitor, competition pulldown",SW620 and MV4-11 lysate,1 h,Kd,> 30.2 µM
O=S1(=O)C=C(Cl)c2ccccc21,Histone acetyltransferase RTT109 with Vps75,"enzyme activity, inhibitor, HTS, CPM-based, dose response",,,IC50,> 125 µM
NCCS(=O)(=O)O,"SLC6A6 (Homo sapiens, UniProt P31641, S402A)",microscale thermophoresis,,S402A mutant,Kd,no binding
O=C(CCCCCCC(=O)Nc1ccc([C@H]2O[C@@H](CSc3nc(-c4ccccc4)c(-c4ccccc4)o3)C[C@@H](c3ccc(CO)cc3)O2)cc1)NO,ALDH2,"inhibitor, competition pulldown",SW620 and MV4-11 lysate,1 h,Kd,> 30.2 µM
COc1ccc(C)cc1CN1CCC(c2cc3ncccc3cn2)CC1,"Catenin beta-1, residues 141-305 (CTNNB1, Homo sapiens, UniProt P35222)","binding, isothermal titration calorimetry",,25 °C,Kd,1.63 µM
O=C(O)/C=C(/CC(=O)O)C(=O)O,"uncharacterized protein (Pelagibacter ubique, UniProt Q4FLC8)","binding, isothermal titration calorimetry",Candidatus Pelagibacter ubique,"one-set-of-sites model, together with: MgSO4 53 mM",Kd,3.13 µM and 3.83 µM
Clc1ccc(COC(Cn2ccnc2)c2ccc(Cl)cc2Cl)cc1 (centres unmarked),7-alpha-hydroxycholest-4-en-3-one 12-alpha-hydroxylase,"binding, Soret peak shift titration",,20% glycerol,Kd,0.0574 µM
Nc1cc(F)ccc1NC(=O)c1ccc(CNC(=O)/C=C/c2cccnc2)cc1,ALDH2,"inhibitor, competition pulldown",SW620 and MV4-11 lysate,1 h,Kd,> 30.2 µM
Cc1ccnc([18F])c1-c1cccc(N2C[C@H](N3CCN(C(=O)c4nccs4)CC3)CC2=O)c1,"Monoglyceride lipase (Macaca mulatta, UniProt H9ESL3)",PET Scatchard analysis,"rhesus monkey, occipital cortex",,Kd,0.00329 µM
O=C(/C=C/c1ccc(O)c(O)c1)OC[C@@H]1O[C@]2(C(=O)O)C[C@H](OC(=O)/C=C/c3ccc(O)c(O)c3)[C@@H](O)[C@H]1O2,"2,4-dienoyl-CoA reductase, mitochondrial (Homo sapiens, UniProt Q16698)","binding, surface plasmon resonance",,,Kd,40.5 µM
CC(=O)Nc1ccc(C(=O)Nc2ccccc2N)cc1,ALDH2,"inhibitor, competition pulldown",SW620 and MV4-11 lysate,1 h,Kd,> 30.2 µM
Fc1ccc(Nc2nc(-c3ccccc3F)no2)cc1,Histone acetyltransferase RTT109 with Vps75,"enzyme activity, inhibitor, HTS, CPM-based, dose response",,,IC50,> 125 µM
Fc1ccc(NC(=S)NCCCn2ccnc2)c(F)c1,7-alpha-hydroxycholest-4-en-3-one 12-alpha-hydroxylase,binding,,"20 min, pH 7.4",Kd,216 µM
C[C@H](O)C(=O)O,V20H-R359H zinc sensor protein,"binding, fluorescence lifetime",,no Zn2+,Kd,43 ± 8 µM
CC(C)CCC[C@@H](C)[C@H]1CC[C@H]2[C@@H]3CC=C4C[C@@H](O)CC[C@]4(C)[C@H]3CC[C@]12C,"Oxysterol-binding protein-related protein 1 (OSBPL1A, Homo sapiens, UniProt Q9BXW6)","binding, radioligand saturation binding",,,Kd,0.393 µM
Nc1ncnc2c1ncn2[C@@H]1O[C@H](COP(=O)(O)OP(=O)(O)O)[C@@H](O)[C@H]1O,"CKMT1A (Homo sapiens, UniProt P12532, H99K)",microscale thermophoresis,,"pH 7.0, H61K mutant, no substrate",Kd,7 ± 2 µM
c1ccc(-c2ccc(OCCn3ccnc3)cc2)cc1,7-alpha-hydroxycholest-4-en-3-one 12-alpha-hydroxylase,binding,,"20 min, pH 7.4",Kd,19.9 µM
CN1CCc2c(c3ccccc3n2Cc2ccc(C(=O)NO)cc2)C1,ALDH2,"inhibitor, competition pulldown",SW620 and MV4-11 lysate,1 h,Kd,> 30.2 µM
Nc1ncnc2c1ncn2[C@@H]1O[C@H](CO[P@](=O)(O)O[P@](=O)(O)O[P@@](=O)(O)S)[C@@H](O)[C@H]1O,"GUK1 (Homo sapiens, UniProt Q16774, R137A)","binding, ITC",,"25 °C, together with: GMP",Kd,> 400 µM
Cn1cc(-c2ccc(S(=O)(=O)n3ccc(/C=C/C(=O)Nc4ccccc4N)c3)cc2)cn1,ALDH2,"inhibitor, competition pulldown",SW620 and MV4-11 lysate,1 h,Kd,> 30.2 µM
Oc1ccc(-c2nc(-c3ccc(OC4CCCC4)cc3)no2)cc1,PdaA (Clostridioides difficile),microscale thermophoresis,,,Kd,no binding
OC[C@H]1O[C@@](CO)(OC[C@@]2(OC[C@@]3(O[C@H]4O[C@H](CO)[C@@H](O)[C@H](O)[C@H]4O)O[C@H](CO)[C@@H](O)[C@@H]3O)O[C@H](CO)[C@@H](O)[C@@H]2O)[C@@H](O)[C@@H]1O,"Fructooligosaccharide ABC transporter substrate-binding protein FusA (fusA, Streptococcus pneumoniae serotype 4, UniProt A0A0H2URD6)",binder,,,Kd,0.3 µM
O=C(O)CCCC[C@@H]1SC[C@@H]2NC(=O)N[C@@H]21,"birA (Escherichia coli, UniProt P06709)","DNA binding, DNase I footprinting",,"together with: ATP, bio-5'-AMP",Kd,0.0037 µM
CC[C@H](C)[C@H](NC(=O)[C@H](CC(C)C)NC(=O)[C@H](Cc1ccc(OP(=O)(O)O)cc1)NC(=O)[C@H](CCC(=O)O)NC(=O)[C@H](CC(=O)O)NC(=O)[C@H](C)NC(=O)[C@H](CC(=O)O)NC(=O)[C@@H](NC(=O)[C@@H](NC(=O)[C@H](CC(=O)O)NC(=O)[C@H](CC(=O)O)NC(=O)[C@H](CCSC)NC(=O)c1ccc2c(c1)C(=O)OC21c2ccc(N(C)C)cc2Oc2cc(N(C)C)ccc21)C(C)C)C(C)C)C(=O)N1CCC[C@H]1C(=O)N[C@@H](CCC(N)=O)C(=O)N[C@@H](CCC(N)=O)C(=O)NCC(=O)N[C@@H](Cc1ccccc1)C(=O)N[C@@H](CC(=O)O)C(=O)O,"Tyrosine-protein phosphatase non-receptor type 11, SH2 domains (PTPN11, Homo sapiens, UniProt Q06124)",binding,,,Kd,0.379 µM
Nc1ccn([C@@H]2O[C@H](COP(=O)(O)OP(=O)(O)O)[C@@H](O)[C@H]2O)c(=O)n1,"RNASE1 (Bos taurus, UniProt P61823)",surface sampling native MS,,,Kd,3.8 ± 0.2 µM
CCCC(CCC)C(=O)O,ALDH2,"inhibitor, competition pulldown",SW620 and MV4-11 lysate,1 h,Kd,> 3020 µM
C=CC(=O)N1CCN(c2nc(OC[C@@H]3CCCN3C)nc3c(F)c(-c4nc(N)cc(C)c4C(F)(F)F)c(Cl)cc23)[C@@H](C)C1,"GTPase KRas, GDP-bound (KRAS, Homo sapiens, UniProt P01116, A146T)",SPR,,,Kd,0.897 ± 0.024 µM
COc1ccc(-c2nc(N3CCOCC3)c3sc(CN(C)c4ncc(C(=O)NO)cn4)cc3n2)cn1,ALDH2,"inhibitor, competition pulldown",SW620 and MV4-11 lysate,1 h,Kd,> 30.2 µM
Cc1cc(-c2cccc3[nH]ccc23)[nH]c1C(=O)O,"BMI1/RNF2 (Homo sapiens, UniProt P35226+Q99496)",,,estimated,Kd,1000 µM

# For quick reference, copied from above:
SMILES,target,test,system,setting,quantity,result
Cc1ccnc([18F])c1-c1cccc(N2C[C@H](N3CCN(C(=O)c4nccs4)CC3)CC2=O)c1,"Monoglyceride lipase (Macaca mulatta, UniProt H9ESL3)",PET Scatchard analysis,"rhesus monkey, occipital cortex",,Kd,0.00329 µM
O=C(/C=C/c1ccc(O)c(O)c1)OC[C@@H]1O[C@]2(C(=O)O)C[C@H](OC(=O)/C=C/c3ccc(O)c(O)c3)[C@@H](O)[C@H]1O2,"2,4-dienoyl-CoA reductase, mitochondrial (Homo sapiens, UniProt Q16698)","binding, surface plasmon resonance",,,Kd,40.5 µM
CC(=O)Nc1ccc(C(=O)Nc2ccccc2N)cc1,ALDH2,"inhibitor, competition pulldown",SW620 and MV4-11 lysate,1 h,Kd,> 30.2 µM
Fc1ccc(Nc2nc(-c3ccccc3F)no2)cc1,Histone acetyltransferase RTT109 with Vps75,"enzyme activity, inhibitor, HTS, CPM-based, dose response",,,IC50,> 125 µM
Fc1ccc(NC(=S)NCCCn2ccnc2)c(F)c1,7-alpha-hydroxycholest-4-en-3-one 12-alpha-hydroxylase,binding,,"20 min, pH 7.4",Kd,216 µM
